# Assay results gathered from unrelated publications.
# Each numbered part is a random draw from the data of one study; scales do not carry over between parts.

# Series 1 — technique: RNA Bind-n-Seq; form: RNA; medium: in vitro; concentration: 200 nM; setting: whole 134-nt RNA, ends assumed; added: 150 mM LiCl; relative to: input library; direction: higher = stronger binding; library: 7-deaza-guanosine replaces G
# Target: Ras GTPase-activating protein-binding protein 1, full length (G3BP1, Homo sapiens, UniProt Q13283)
# UniProt Q13283, sequence (whole entry, looked up): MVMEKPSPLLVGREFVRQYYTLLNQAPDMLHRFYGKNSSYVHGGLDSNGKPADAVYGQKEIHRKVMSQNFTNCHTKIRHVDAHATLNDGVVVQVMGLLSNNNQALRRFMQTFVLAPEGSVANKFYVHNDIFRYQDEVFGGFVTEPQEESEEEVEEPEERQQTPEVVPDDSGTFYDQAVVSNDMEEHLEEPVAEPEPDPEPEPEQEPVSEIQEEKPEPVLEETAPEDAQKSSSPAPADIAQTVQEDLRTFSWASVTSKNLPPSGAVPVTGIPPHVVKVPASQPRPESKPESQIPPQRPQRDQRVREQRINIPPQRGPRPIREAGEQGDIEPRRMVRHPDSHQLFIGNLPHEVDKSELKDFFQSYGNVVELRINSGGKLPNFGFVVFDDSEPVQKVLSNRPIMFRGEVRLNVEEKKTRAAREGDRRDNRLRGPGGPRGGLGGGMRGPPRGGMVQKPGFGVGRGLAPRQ
Oligonucleotide,log2 enrichment
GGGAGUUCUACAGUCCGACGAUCAAGUCCUGUGCUACACAUCGUAUGUACCGAAUCGGUUUUUGGUUUUUUUGGUUUGGAAAGUAUUAUGUUACGCCGUUCGGAUCUGCACUUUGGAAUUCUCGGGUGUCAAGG,-1.61
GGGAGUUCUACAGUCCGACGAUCUCAAGUCCUGUGCUACACAUCGUAUGUACCGAAUCGGUUUUUUUGGAGGAAAGGAAAGUAUUAUGUUACGCCGUUCGGAUCUGCACUUCCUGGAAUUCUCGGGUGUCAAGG,0.165
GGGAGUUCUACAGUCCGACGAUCCUCAAGUCCUGUGCUACACAUCGUAUGUACCGAAUCGGGAGGGAGGGAAAGGGAAAGUAUUAUGUUACGCCGUUCGGAUCUGCACUUCCAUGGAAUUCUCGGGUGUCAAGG,0.0631
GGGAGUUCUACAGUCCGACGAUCGUCCUGUGCUACACAUCGUAUGUACCGAAUCGGGCCCCCGGGCCCCCGGCCCCCGGGGAAAGUAUUAUGUUACGCCGUUCGGAUCUGCACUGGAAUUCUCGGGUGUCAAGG,-0.578
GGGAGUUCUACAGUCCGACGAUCUCCUGUGCUACACAUCGUAUGUACCGAAUCGGGCCCCCCGGGCCCCCCGGCCCCCCGGGAAAGUAUUAUGUUACGCCGUUCGGAUCUGCAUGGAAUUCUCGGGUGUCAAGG,-0.526
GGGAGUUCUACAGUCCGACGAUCCCUCAAGUCCUGUGCUACACAUCGUAUGUACCGAAUCGGUGGUGGUUUUUGGAAAGUAUUAUGUUACGCCGUUCGGAUCUGCACUUCCAGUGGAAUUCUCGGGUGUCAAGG,0.0575
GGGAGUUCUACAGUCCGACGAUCCACAGACAACACGCACCCACACAGACACAAAAGGAAGGGGUUGGGAUGGGGACAGGGUGCACAGCAGGGCGGGGUAGGACCCCAGCCCCUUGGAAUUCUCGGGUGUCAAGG,-0.256
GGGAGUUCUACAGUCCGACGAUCUCCUGUGCUACACAUCGUAUGUACCGAAUCGGGGUUUUUGGGUUUUUGGGUUUUUGGGGAAAGUAUUAUGUUACGCCGUUCGGAUCUGCAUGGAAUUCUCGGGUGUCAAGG,-0.0559
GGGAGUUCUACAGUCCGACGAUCCAAGUCCUGUGCUACACAUCGUAUGUACCGAAUCGGUUUUGGUUUUGGGUUUUGGGAAAGUAUUAUGUUACGCCGUUCGGAUCUGCACUUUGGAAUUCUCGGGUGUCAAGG,-1.07
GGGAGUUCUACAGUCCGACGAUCAAGUCCUGUGCUACACAUCGUAUGUACCGAAUCGGGAAAAGGAAAAGGGAAAAGGGGAAAGUAUUAUGUUACGCCGUUCGGAUCUGCACUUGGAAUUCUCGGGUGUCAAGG,0.49
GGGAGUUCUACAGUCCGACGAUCCAAGUCCUGUGCUACACAUCGUAUGUACCGAAUCGGUUUUUGGAAAAAGGUUUGGAAAGUAUUAUGUUACGCCGUUCGGAUCUGCACUUCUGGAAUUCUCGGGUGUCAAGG,-2.5

# Series 2 — technique: competition protein-binding microarray; form: double-stranded DNA, one strand shown; medium: in vitro; concentration: 2 µM; added: Pho4 competitor, 0.05 µM; direction: higher = stronger binding
# Target: Centromere-binding protein 1, full length, His-tagged (CBF1, Saccharomyces cerevisiae, UniProt P17106, residues 1-351)
# UniProt P17106, sequence (whole entry, looked up): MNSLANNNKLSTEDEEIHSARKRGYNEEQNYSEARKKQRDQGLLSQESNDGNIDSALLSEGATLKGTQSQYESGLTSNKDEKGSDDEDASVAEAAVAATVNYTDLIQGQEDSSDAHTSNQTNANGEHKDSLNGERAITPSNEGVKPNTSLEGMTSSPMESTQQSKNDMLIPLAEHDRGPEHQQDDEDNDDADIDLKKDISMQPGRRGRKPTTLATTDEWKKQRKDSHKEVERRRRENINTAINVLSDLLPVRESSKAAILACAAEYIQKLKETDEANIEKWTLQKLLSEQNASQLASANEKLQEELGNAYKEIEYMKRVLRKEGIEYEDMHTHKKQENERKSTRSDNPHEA
# Setting: whole 60-bp probe, lowest competitor level
Oligonucleotide,fluorescence intensity [a.u.]
CTAACGAAGGTTTGCTTTGTGGGTGACAAGCCAAGTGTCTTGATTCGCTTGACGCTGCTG,75
CTCCCTCTGTGCGGCCACGTGGGACTCGTCGTCTTGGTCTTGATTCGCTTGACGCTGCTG,695
AATTTTTTTCTTCGGCACGTCATACACCTTGTAATGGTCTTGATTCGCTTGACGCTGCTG,74.4
TTACTGGCGTAGACACCCGTGAAGTAGTGCAATACTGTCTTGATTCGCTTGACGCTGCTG,66.1
TCGCCGAAACCTTGAAGCATGACAAGAATTTATAGTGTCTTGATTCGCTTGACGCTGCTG,185
AAAGCGGTAATTTTTCACGTGGACTCACATATCTATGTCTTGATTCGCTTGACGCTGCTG,820
TCATTGTTACAGCCGCCCGTGGCCGTGTTCCACGGAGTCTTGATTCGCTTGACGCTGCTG,52.4
AATTCTGGAATACTCCACGTGACTCGTATCCGAAAAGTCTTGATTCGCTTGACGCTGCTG,3750
CTAACGAAGGTTTGTCACGACACTTACAAGCCAAGTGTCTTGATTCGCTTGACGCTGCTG,218
TAGAACCAGTATCCACACGTGGTGACAAAAACTCGAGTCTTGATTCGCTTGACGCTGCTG,1080
TGCGCAACAACTTGTCACGATACTTTATGTCTAGAAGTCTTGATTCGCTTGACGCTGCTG,272
CAACACTGGCGGGTCCACGTGTTGGCTAGCCTCACCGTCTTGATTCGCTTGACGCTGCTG,581
TGAACGAAAGACCTGCGCATGACAACAAATTTACCGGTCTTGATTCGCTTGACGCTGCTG,188
ACCCGGTGCAGGTTCGTCGTGCCGAAAGACTCACCAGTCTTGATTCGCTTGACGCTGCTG,67.5
CGTCCTAGTGATTGTCACTTAACTTCCATGAGGAAGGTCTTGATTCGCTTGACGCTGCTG,83
ATGGGTACCACAAAGCGAGGTCGCTTTTGAAGAGCCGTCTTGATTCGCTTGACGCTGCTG,49.6

# Series 3 — technique: RNA Bind-n-Seq; form: RNA; medium: in vitro; concentration: 365 nM; relative to: no-protein control; direction: higher = stronger binding
# Target: RNA binding protein fox-1 homolog 2, RRM domain, GST-SBP tag (RBFOX2, Homo sapiens, UniProt O43251-10, residues 100-194)
# Setting: natural RNA segment, single round, ends assumed
# Construct (chain): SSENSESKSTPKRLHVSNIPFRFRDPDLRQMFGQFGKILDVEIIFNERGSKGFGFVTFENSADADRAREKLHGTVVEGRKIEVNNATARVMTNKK
Oligonucleotide,RBNS enrichment (R)
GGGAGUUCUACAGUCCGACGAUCGGUGGGCAAGGGCUGCGGCUCUGCCUCCACGACUGGGCGGAAGCCCAGGUAGGGGUGGGGCUGCCCUUCAGCGCAGCAGUGUGGGCUGCAUUUCUGUUCACCAGCCUCCCUGGAAUUCUCGGGUGCCAA,0.205
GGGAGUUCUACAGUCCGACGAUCAGAUAAGGGAGGCCCCUCCCCCCUCCCGGAGGCCAGGACCCCGUGGGGCGGGGGAGAGGACGUCUCUGCGGGCCCCCUUCACCCCUUUUCUGUCUGCACCCCUUGUUCCCUGGAAUUCUCGGGUGCCAA,0.379
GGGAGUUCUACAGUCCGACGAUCAGCAGCGAGCAUCCAAGGGUUGGCAGGGACAGUGUUACAGGCUCUUUAUUUUGCUGCUUUGAUUUUGCUUCUGUCUGCCCCUCACAUGUGCAGUGGCAGGCGUGUUUGAGUGGAAUUCUCGGGUGCCAA,1.87
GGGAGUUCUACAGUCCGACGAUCGUCUGGAGCUCCACCUUUGCAAAGAAAGGAAAAACACAAAUUGCCCCCAGAUUGGCCCAGUGGCAUGCCAUUAGGUGAUUUUGCAUAGGGGCCAUAUCAUUCAUGGCCAAUGGAAUUCUCGGGUGCCAA,0.432
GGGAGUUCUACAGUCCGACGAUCUCAUGCCUGAGUCAGGAAUACAUGGAGAGACAGCCUACAUCUGACAGACUCCCACAAAACAAACUGCCAGCAAACUUUCUAACUCAUUUUAACCGUUCAAGCGGGGAAUUUGGAAUUCUCGGGUGCCAA,0.662
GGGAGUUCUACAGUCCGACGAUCAUAUAGCUUAUUUUCUUCAUUUACUAGAGGAGGAAAAAUAGAACCAAAAAAUGCAUGAACUCCUGCUUUUCAAUCUGAUUACCUCAAACUGAAAAGCAGGUGAAAGGAGGUGGAAUUCUCGGGUGCCAA,0.975
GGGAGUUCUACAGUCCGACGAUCCUCAGAAGAGCUCAUGUCCUGGGACGGUGGUGCUGGAGCCUGGGCGAGCCUUCCACUCUCCCACGGUCUGGUGUCUCUAUGGAAAUAAAGUCUUAGUAUUGCAUUGGUGUUGGAAUUCUCGGGUGCCAA,1.31
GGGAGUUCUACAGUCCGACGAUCUUCGAUGUGGGCACCUGGGCUUCCUAGGGCUGCUUCUGAGUGGUUCUUUCACGUGUUGUGUCCAUAGCUUUAGUCUUCCUAAAUAAGAUCCACCCACACCUAAGUCACAGUGGAAUUCUCGGGUGCCAA,0.522
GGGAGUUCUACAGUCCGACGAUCCCUCCCCAGGCACCACUACCACCUGACAAAAAUGAAAAGUCUUAAGAAAAUCCUCCCAGGAGAACAUGGAGUCUUAGAGAUCUGGAAGAGAUCGGAGUUUGACUAGGUUUUGGAAUUCUCGGGUGCCAA,0.752
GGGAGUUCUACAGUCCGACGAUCUAUACAAAGGUACUUGCCCUUUCCCUUUGUAAACUACAUUUGACAUGGAUUAAAACAGUAUAAACAACUGCUGUCUGUGUUUGAAGAUCUUCUGGGAAGGUGGUGGCUGAUGGAAUUCUCGGGUGCCAA,0.348
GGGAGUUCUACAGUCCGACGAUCGAUUUUCAGUAACUGAAUUUGUGCACAAAACAUUCUAAACACUAGUGAAGCCUGUUUCGUUGAACUAAUUCUGGCUCUGGAAAUGUUUUUGUUUUAUAGUUAUUUACGAUUGGAAUUCUCGGGUGCCAA,0.52
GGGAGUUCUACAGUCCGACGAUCCCUGUUUUAAAAACUAAAUGAAGGGAACCACAUUAGGGCCCAUGCCAGCAUCCCAGUGAAGUUCGUCCAGCUCCAGUUAGGUGGAUUCUGGAGUUCGGAGAGGGUUUAAAUGGAAUUCUCGGGUGCCAA,1.08

# Series 4 — technique: aptamer microarray, sandwich; form: DNA with 2'F-ANA; medium: in vitro; concentration: 200 nM; added: Cy3 exosite-II aptamer, 400 nM; direction: higher = stronger binding; oligonucleotide: GGTTGGTGTGGTTGG
# Target: Prothrombin, mature alpha-thrombin (F2, Homo sapiens, UniProt P00734)
# Setting: whole 15-mer aptamer, many near background
Modification,mean fluorescence intensity [a.u.]
2'F-ANA at 4 7 8 9 13 14,93.2
2'F-ANA at 4 5 6 8 11 14,43.6
2'F-ANA at 1 2 8 9 11 12 14 15,68.4
2'F-ANA at 6 7 8 9 14 15,174
2'F-ANA at 4 5 6 7 8 9 10,46.8
2'F-ANA at 1 2 4 5 6 8 10 12 13 15,50
2'F-ANA at 3 7 8 10 11 12 13 14 15,371
2'F-ANA at 1 6 8 9 10 13 14,52.1
2'F-ANA at 4 6 7 14,91.9
2'F-ANA at 6 7 8 13 14,192
2'F-ANA at 1 3 5 7 9 11 12 13 15,74.7
2'F-ANA at 2 4 7 11 15,353
2'F-ANA at 1 3 4 5 6 7 8 11 13 14 15,45.8
2'F-ANA at 1 2 3 7 9 12,492
2'F-ANA at 1 4 5 7 8 9 12 15,113
2'F-ANA at 2 3 4 8 10 11 13,215
2'F-ANA at 1 3 6 12 13 14 15,123
2'F-ANA at 1 3 5 6 7 8 9 11 14 15,49.4
2'F-ANA at 6 9 10 11 13,130
2'F-ANA at 1 3 4 5 7 8 11,96.4
2'F-ANA at 2 3 4 5 7 12 13 14 15,51.7
2'F-ANA at 4 5 6 9 15,64.2
2'F-ANA at 2 3 4 6 8 9 10 11 12 13 14 15,128
2'F-ANA at 1 2 3 5 7 8 9 12 13,87.3
2'F-ANA at 3 5 8 11 13 14 15,57.2

# Excerpt of the above (series 3):
Oligonucleotide,RBNS enrichment (R)
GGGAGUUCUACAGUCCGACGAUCAUAUAGCUUAUUUUCUUCAUUUACUAGAGGAGGAAAAAUAGAACCAAAAAAUGCAUGAACUCCUGCUUUUCAAUCUGAUUACCUCAAACUGAAAAGCAGGUGAAAGGAGGUGGAAUUCUCGGGUGCCAA,0.975
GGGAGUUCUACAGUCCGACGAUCGGUGGGCAAGGGCUGCGGCUCUGCCUCCACGACUGGGCGGAAGCCCAGGUAGGGGUGGGGCUGCCCUUCAGCGCAGCAGUGUGGGCUGCAUUUCUGUUCACCAGCCUCCCUGGAAUUCUCGGGUGCCAA,0.205
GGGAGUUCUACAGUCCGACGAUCCCUCCCCAGGCACCACUACCACCUGACAAAAAUGAAAAGUCUUAAGAAAAUCCUCCCAGGAGAACAUGGAGUCUUAGAGAUCUGGAAGAGAUCGGAGUUUGACUAGGUUUUGGAAUUCUCGGGUGCCAA,0.752
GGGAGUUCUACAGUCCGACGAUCAGCAGCGAGCAUCCAAGGGUUGGCAGGGACAGUGUUACAGGCUCUUUAUUUUGCUGCUUUGAUUUUGCUUCUGUCUGCCCCUCACAUGUGCAGUGGCAGGCGUGUUUGAGUGGAAUUCUCGGGUGCCAA,1.87
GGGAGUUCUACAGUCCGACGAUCCCUGUUUUAAAAACUAAAUGAAGGGAACCACAUUAGGGCCCAUGCCAGCAUCCCAGUGAAGUUCGUCCAGCUCCAGUUAGGUGGAUUCUGGAGUUCGGAGAGGGUUUAAAUGGAAUUCUCGGGUGCCAA,1.08
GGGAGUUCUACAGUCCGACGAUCUUCGAUGUGGGCACCUGGGCUUCCUAGGGCUGCUUCUGAGUGGUUCUUUCACGUGUUGUGUCCAUAGCUUUAGUCUUCCUAAAUAAGAUCCACCCACACCUAAGUCACAGUGGAAUUCUCGGGUGCCAA,0.522
